Measured values gathered from unrelated publications.
Lines come from different studies, so protocols differ.
MET Y1235D: Hepatocyte growth factor receptor (MET, Homo sapiens, UniProt P08581, Y1235D)
UCHL1: Ubiquitin carboxyl-terminal hydrolase isozyme L1 (UCHL1, Homo sapiens, UniProt P09936)
Sequence of UniProt P09936 (whole entry, looked up): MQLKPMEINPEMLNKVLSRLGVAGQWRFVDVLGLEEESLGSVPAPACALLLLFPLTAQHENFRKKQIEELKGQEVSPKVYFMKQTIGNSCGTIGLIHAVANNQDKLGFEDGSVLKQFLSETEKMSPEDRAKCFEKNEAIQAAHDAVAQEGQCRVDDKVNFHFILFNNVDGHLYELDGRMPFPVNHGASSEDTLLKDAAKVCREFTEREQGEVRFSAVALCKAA
MET: Hepatocyte growth factor receptor (MET, Homo sapiens, UniProt P08581)
MET M1250T: Hepatocyte growth factor receptor (MET, Homo sapiens, UniProt P08581, M1250T)

`COc1cc(N2CCN(C)CC2)ccc1Nc1nc(N)n(C(=S)NCc2c(Cl)cccc2Cl)n1` has a remaining activity of 0.2% (MET Y1235D; enzyme activity; 10 µM; reference: control).
`C=CC(=O)N1CCC(COCC(=O)N2CCN(c3nc(-c4cnc(N)nc4C(F)F)nc(N4CCOC[C@@H]4C)n3)CC2)CC1` has a remaining binding of 100% (MET Y1235D; KINOMEscan; 1 µM; reference: DMSO control).
`COc1ccc(-c2csc(NC(=O)CCl)n2)c(O)c1` gave a labelling of 10.1% (UCHL1; covalent, intact protein LC-MS; 12.5 µM).
With `[2H]c1cc(C)c(NC(=O)c2cnc(Nc3cc(N4CCCCC4)nc(C)n3)s2)c(Cl)c1` the inhibition was < 30% (MET; 0.01 µM).
For `C=CC(=O)N1CCC(C(=O)NCC(=O)N2CCN(c3nc(-c4cnc(N)nc4C(F)F)nc(N4CCOCC4)n3)CC2)CC1`, the remaining binding was 98% (MET Y1235D; KINOMEscan; 1 µM).
`COc1cc(N2CCN(C)CC2)ccc1Nc1nc(N)n(C(=O)NCc2c(Cl)cccc2Cl)n1` gave a remaining activity of 2.4% (MET M1250T; enzyme activity; 10 µM; reference: control).
With `C[C@@H](c1ccc(-n2cnc3c(N)ncnc32)cc1)N1CCc2nn(C)c(Cc3ccccc3)c2C1=O` the remaining binding was 87% (MET M1250T; KINOMEscan; 0.1 µM; reference: DMSO control).
With `O=C(NC1CCC1)c1ccc2nc(-c3cccc(NS(=O)(=O)NCCN4CCCCC4)c3)cn2c1` the remaining activity was 100% (MET; enzyme activity; 10 µM).
`Cl.O=C(CCl)NC1(c2nc(-c3ccccc3)c[nH]2)CCCC1` has a labelling of 27.5% (UCHL1; covalent, intact protein LC-MS; 12.5 µM).
The remaining activity of `CCCOc1ccc(OC)c(F)c1C(=O)c1ccc(C(=O)N[C@@H]2CNC[C@H]2NC(=O)c2ccc3[nH]ncc3c2)cc1` is reported as 49% (Hepatocyte growth factor receptor (MET, Homo sapiens, UniProt P08581, D1228N); enzyme activity; 10 µM).
`C1=C/COCc2cc(ccc2OCCN2CCCC2)Nc2nccc(n2)-c2cccc(c2)COC/1`: “percent of control” 83% (MET; concentration not given).
